Measurements gathered from unrelated publications.
Every numbered part comes from another study and shows a few of its results, in no order. Positions count from the first letter of the parent shown.

Sample 1
Target: Sal-like protein 4, full length isoform A (SALL4, Homo sapiens, UniProt Q9UJQ4, residues 1-1053)
Chain of UniProt Q9UJQ4 (whole entry, looked up): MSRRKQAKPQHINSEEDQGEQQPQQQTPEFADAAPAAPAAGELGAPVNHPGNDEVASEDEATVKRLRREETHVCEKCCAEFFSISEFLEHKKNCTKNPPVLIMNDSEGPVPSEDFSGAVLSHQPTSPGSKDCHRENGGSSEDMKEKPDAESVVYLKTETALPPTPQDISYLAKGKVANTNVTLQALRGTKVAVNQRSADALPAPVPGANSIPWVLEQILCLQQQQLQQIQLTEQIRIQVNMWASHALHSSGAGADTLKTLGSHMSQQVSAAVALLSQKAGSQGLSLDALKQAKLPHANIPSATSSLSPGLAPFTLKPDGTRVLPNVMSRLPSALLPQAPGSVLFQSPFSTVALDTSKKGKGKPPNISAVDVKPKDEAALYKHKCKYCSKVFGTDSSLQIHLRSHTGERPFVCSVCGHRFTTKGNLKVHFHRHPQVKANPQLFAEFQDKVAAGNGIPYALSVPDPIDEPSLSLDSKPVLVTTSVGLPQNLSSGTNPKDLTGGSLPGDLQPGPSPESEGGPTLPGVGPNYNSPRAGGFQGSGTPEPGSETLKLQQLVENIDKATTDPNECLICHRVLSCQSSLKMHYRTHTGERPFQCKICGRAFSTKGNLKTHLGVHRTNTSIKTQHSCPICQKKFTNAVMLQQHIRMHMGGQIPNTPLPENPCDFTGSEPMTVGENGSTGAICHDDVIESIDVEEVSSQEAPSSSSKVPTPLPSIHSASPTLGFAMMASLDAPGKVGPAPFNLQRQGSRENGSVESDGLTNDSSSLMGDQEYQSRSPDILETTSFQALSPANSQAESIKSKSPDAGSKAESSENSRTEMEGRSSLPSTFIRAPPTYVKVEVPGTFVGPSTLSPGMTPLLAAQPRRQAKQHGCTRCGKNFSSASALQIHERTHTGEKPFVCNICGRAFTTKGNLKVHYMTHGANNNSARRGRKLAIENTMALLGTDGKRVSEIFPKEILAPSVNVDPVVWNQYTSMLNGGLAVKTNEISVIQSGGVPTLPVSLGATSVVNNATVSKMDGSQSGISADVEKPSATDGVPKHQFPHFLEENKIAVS
Method: universal PBM
Form: double-stranded DNA, one strand shown
Medium: in vitro
Tested at: 600 nM
Notes: 8-mer, flanks averaged, mean of replicates
Direction: higher = stronger binding
Endpoint: E-score
ACTATGCA: 0.0251
ATCGCCCG: -0.323
CGACGCAG: -0.326
ACTAGAAG: 0.0608
CTAAGACC: -0.186
CCTGTCTA: -0.0225
AATAGCAA: 0.325
GTGGGAAC: -0.215
CACAACAA: 0.143
AATCGGCC: -0.236
ACGTCCAA: 0.0201
ATACTCGA: 0.144
ATGGCGCC: -0.284
ACAACACG: 0.0101
AATGGCCA: -0.149

Sample 2
Target: Ras GTPase-activating protein-binding protein 1, C-terminal RGG region (G3BP1, Homo sapiens, UniProt Q13283)
Chain of UniProt Q13283 (whole entry, looked up): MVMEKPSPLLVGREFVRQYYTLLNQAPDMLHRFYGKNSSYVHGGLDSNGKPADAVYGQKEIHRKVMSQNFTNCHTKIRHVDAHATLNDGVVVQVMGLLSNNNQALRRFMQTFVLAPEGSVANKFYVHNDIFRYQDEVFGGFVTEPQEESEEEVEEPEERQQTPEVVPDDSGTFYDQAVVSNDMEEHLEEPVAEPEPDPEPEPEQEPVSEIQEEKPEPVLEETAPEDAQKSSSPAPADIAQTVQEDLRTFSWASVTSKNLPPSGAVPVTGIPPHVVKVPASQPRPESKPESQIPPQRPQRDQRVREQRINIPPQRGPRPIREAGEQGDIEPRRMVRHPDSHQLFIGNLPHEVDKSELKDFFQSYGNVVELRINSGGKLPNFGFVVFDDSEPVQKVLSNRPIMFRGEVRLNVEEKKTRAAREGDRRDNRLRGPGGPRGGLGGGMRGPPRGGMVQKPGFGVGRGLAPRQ
Method: RNA Bind-n-Seq
Form: RNA
Medium: in vitro
Tested at: 1 µM
Notes: whole 134-nt RNA, ends assumed
Added: 150 mM KCl
Relative to: input library
Direction: higher = stronger binding
Endpoint: log2 enrichment
All sequences stand within: GGGAGUUCUACAGUCCGACGAUC … UGGAAUUCUCGGGUGUCAAGG
GUCCUGUGCUACACAUCGUAUGUACCGAAUCGGGUGGGAAAAAAAGGGAAAAAAAGGGAAAGUAUUAUGUUACGCCGUUCGGAUCUGCAC: -0.0403
UCCUGUGCUACACAUCGUAUGUACCGAAUCGGGAAAAAAGGAAAAAAGGGGAAAAAAGGGAAAGUAUUAUGUUACGCCGUUCGGAUCUGC: -1.22
AGUCCUGUGCUACACAUCGUAUGUACCGAAUCGGGAAAAAGGGAAAAAGGGAAAAAGGAAAGUAUUAUGUUACGCCGUUCGGAUCUGCAC: -1.77
UAACUUUAGAGGAGGAUGUGAUGGAUAUGGCAGUGGACGUGGAUUUGGGGAUGGCUAUAAUGGGUAUGGAGGAGGACCUGGAGGUGGCAA: -1.43
GCAGGAAGUAAAAACAAUUGGAAAUGCUUCGGAUAGUGGCAGGGGUGGGGGUUGCUAAGGAAAGGGUGGGAUGGGAGUGGGUAAAGAGUU: 1.67
UCCUGUGCUACACAUCGUAUGUACCGAAUCAAAUUUUUAAAUUUUUUUAAACCCCCAAAAAAGUAUUAUGUUACGCCGUUCGGAUCUGCA: -0.616
AGUCCUGUGCUACACAUCGUAUGUACCGAAUCGGGGAAAGGGGAAAGGGGUUUGGGGAAAGUAUUAUGUUACGCCGUUCGGAUCUGCACU: 3.84
AAGUCCUGUGCUACACAUCGUAUGUACCGAAUCGGGAAAAGGGGAAAAGGAAAAGGGAAAGUAUUAUGUUACGCCGUUCGGAUCUGCACU: -1.4

Sample 3
Target: CCNB2, cyclin fold, Cln2 fusion (human)
Method: yeast growth competition, sequencing
Medium: yeast
Notes: weak parent motif
Relative to: not given
Direction: higher = stronger binding
Endpoint: normalised enrichment score
Starting sequence: RB1 docking peptide (human); PKPLKKLRFDIEG
D10C: 0.308
P3V: 0.0525
E12R: 0.0534
R8Q: -0.294
F9L: 0.406
P3Q: -0.0965
L4W: 0.365
K6I: 0.148
E12N: 0.846
E12H: -0.133
I11P: 0.207
L7R: 0.669
K2T: 0.215
F9E: -0.112
L4R: 0.262

Further values, each from its own experiment
PhoQ, residues 284 288 289 292 302 303 NLAAMI
fold induction (PhoP, residues 12 14 15 18 19 QQAYL (Escherichia coli, UniProt P23836); Sort-seq, measured: YFP reporter; E. coli; PhoQ-PhoP variant library, added: 10 µM Mg2+; relative to: high Mg2+ state, higher = stronger signaling): 4.75

For quick reference, copied from above (sample 1):
ACGTCCAA: 0.0201
CCTGTCTA: -0.0225
